Experimental data pooled from the literature.
Target: Calcium/calmodulin-dependent protein kinase type IV (CAMK4, Homo sapiens, UniProt Q16566)

C=CC(=O)N1CCCC(n2c(=O)c3ncccc3n(Cc3ccc(Oc4ccccc4)cc3)c2=O)C1 (stereo not shown)
remaining binding (cell-free assay, competition with immobilised ligand; 1 µM): 96%

COc1cc(Nc2nc(C)cc(-c3cnn4nc(OC)ccc34)n2)cc(C(F)(F)F)c1
remaining activity (inhibitor; 1 µM; reference: control): 100%

COc1c(Cl)cccc1Nc1c(-c2ccncc2C#C[C@@]2(C)CCCN2C(=O)/C=C/CN(C)C)[nH]c2c1C(=O)NCC2
remaining binding (binding, competition with immobilised ligand; 3 µM): 98%

C=CC(=O)Nc1cccc(-c2cnc3[nH]cc(C(=O)NC(C)(C)C)c3n2)c1
inhibition (enzyme activity, inhibitor; 0.1 µM): 1%

CC(C)=CC1OC(C)(C)C2C=C3C(=O)C(Cl)=CC(O)C3C3C(O)C4OC4C(=O)C132 (stereo not shown)
remaining binding (cell-free assay, competition with immobilised ligand; 10 µM): 99%

Nc1ncc2c(n1)-c1c([nH]c3ccc(C4=CCOCC4)cc13)CCC2
remaining binding (binding, competition with immobilised ligand; 1 µM): 100%

COc1c(OCCCN2CCOCC2)ccc2c1N=C(NC(=O)c1cnc(N)nc1)N1CCN=C21
remaining activity (kinase activity, inhibitor; 1 µM; reference: untreated control): 105%

O=C=[N][Ru-4]123([n]4c5ccc(O)cc5c5c6c(c7cc(F)c[n+]1c7c54)C(=O)NC6=O)[S+]1CC[S+]2CC[S+]3CC1 (stereo not shown)
remaining activity (enzyme activity; 100 nM, human enzyme, added: 10 µM ATP; reference: untreated): 59%

O=c1c(-c2ccc(Cl)c(CN3CCOCC3)c2)coc2cc(O)ccc12
remaining activity (enzyme activity, inhibitor; 1 µM): 97%

CN1CCN(Cc2ccc(-c3ccc(CO[C@H]4CCC[C@@H]4NC(=O)c4cc(-c5cnn(C)c5)cnc4N)cc3)cc2)CC1
inhibition (enzyme activity, inhibitor; 0.1 µM): 8%

Cc1cnc2nc1Nc1cccc(c1)COC/C=C/COCc1cc(ccc1OCCN1CCOCC1)N2
remaining binding (binding; 0.1 µM): 94%

C=CC(=O)N1Cc2nc(-c3cc(-c4cc(Cl)cnc4Cl)c(F)cc3F)n(-c3ccncn3)c2C1
inhibition (cell-free assay, inhibitor; 1 µM): 0.7%

CS(=O)(=O)Nc1cccc(-c2csc3cnc(Nc4ccc(N5CCN(CCCCCOc6cccc7c6C(=O)N(C6CCC(=O)NC6=O)C7=O)CC5)cc4)nc23)c1 (stereo not shown)
inhibition (probe labelling, inhibitor, KiNativ chemoproteomics; MOLT-4; 1 µM): 40.5%

CN1CC[C@@H](COc2cnc(C#N)cc2-c2ccn3nc(NC(=O)C4CC4)cc3c2)C1
inhibition (enzyme activity, inhibitor; 1 µM): -4%

NC(=O)[C@@H](O)C[C@H]1CCc2sc3ncnc(O[C@H]4CC[C@H](N5CCOCC5)CC4)c3c21
inhibition (enzyme activity, inhibitor; 10 µM): 0%

Cc1cccc(O[C@H]2CCC[C@@H](C(C)CNCc3ccncc3)C2)c1 (relative stereo)
inhibition (enzyme activity, inhibitor; 1 µM): 0%

Excerpt of the above:
C=CC(=O)N1CCCC(n2c(=O)c3ncccc3n(Cc3ccc(Oc4ccccc4)cc3)c2=O)C1 (stereo not shown)
remaining binding (cell-free assay, competition with immobilised ligand; 1 µM): 96%
